Measured values collected from several papers.
Protocols differ between the studies behind these lines. ± marks the error that the study gave.
BCHE: Cholinesterase (BCHE, Equus caballus, UniProt P81908)
UniProt P81908, sequence (whole entry, looked up): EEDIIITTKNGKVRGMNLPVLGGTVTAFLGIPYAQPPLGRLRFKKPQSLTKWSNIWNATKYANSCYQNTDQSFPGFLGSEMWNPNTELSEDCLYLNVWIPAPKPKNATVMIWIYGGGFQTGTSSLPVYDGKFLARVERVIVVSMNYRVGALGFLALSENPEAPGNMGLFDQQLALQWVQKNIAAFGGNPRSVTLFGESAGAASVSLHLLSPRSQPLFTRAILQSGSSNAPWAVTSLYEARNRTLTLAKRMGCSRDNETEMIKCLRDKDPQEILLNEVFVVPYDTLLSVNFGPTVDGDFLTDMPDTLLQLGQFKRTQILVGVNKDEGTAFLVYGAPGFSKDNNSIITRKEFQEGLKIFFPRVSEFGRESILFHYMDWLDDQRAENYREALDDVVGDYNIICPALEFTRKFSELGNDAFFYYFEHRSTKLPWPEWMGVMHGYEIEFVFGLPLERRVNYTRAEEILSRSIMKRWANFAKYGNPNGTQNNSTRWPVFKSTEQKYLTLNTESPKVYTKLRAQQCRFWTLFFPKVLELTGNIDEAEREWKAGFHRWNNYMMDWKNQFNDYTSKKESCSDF
UniProt P42330, sequence (whole entry, looked up): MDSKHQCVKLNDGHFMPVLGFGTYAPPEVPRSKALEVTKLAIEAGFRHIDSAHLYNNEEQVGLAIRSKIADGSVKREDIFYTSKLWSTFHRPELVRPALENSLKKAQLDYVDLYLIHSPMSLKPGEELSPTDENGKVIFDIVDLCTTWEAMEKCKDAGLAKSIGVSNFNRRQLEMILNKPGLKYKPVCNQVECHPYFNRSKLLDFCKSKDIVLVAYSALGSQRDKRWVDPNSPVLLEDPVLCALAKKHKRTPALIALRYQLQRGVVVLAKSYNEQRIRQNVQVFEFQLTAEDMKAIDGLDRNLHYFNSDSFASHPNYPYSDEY
UniProt P12821, sequence (whole entry, looked up): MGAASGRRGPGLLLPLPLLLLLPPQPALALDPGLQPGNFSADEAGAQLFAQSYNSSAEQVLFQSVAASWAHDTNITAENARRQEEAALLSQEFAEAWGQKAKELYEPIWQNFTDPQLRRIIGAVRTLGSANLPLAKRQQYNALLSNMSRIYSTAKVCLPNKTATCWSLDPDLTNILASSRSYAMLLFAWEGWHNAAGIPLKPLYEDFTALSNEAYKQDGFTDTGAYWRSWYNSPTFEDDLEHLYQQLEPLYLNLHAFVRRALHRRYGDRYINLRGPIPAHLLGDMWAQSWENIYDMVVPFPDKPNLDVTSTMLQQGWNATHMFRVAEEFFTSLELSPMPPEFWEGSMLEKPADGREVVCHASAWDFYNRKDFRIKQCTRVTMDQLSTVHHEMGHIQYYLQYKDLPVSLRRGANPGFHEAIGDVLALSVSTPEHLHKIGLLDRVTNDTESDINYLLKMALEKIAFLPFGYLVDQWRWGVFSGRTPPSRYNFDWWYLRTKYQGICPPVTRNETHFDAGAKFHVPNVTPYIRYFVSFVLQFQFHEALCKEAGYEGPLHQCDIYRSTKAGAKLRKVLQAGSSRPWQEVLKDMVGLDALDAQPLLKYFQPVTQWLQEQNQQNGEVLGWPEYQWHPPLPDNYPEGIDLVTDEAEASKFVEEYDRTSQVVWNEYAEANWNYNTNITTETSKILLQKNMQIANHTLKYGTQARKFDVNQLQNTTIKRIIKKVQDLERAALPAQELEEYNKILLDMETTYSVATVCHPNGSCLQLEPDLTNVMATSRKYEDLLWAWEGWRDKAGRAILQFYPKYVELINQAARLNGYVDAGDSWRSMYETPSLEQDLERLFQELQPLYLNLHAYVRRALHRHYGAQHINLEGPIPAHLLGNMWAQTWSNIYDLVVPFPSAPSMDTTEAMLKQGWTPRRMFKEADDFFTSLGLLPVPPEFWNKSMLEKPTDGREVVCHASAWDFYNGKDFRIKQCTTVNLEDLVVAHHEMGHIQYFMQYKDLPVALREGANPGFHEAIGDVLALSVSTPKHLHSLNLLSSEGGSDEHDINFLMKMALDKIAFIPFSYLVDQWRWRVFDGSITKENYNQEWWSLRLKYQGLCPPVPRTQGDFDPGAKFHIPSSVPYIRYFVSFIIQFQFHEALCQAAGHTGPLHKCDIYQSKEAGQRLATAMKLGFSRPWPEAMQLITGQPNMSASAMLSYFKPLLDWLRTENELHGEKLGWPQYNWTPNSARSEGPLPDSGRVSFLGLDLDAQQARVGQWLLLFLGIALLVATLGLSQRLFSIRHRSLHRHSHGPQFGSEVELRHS
UniProt Q96LA8, sequence (whole entry, looked up): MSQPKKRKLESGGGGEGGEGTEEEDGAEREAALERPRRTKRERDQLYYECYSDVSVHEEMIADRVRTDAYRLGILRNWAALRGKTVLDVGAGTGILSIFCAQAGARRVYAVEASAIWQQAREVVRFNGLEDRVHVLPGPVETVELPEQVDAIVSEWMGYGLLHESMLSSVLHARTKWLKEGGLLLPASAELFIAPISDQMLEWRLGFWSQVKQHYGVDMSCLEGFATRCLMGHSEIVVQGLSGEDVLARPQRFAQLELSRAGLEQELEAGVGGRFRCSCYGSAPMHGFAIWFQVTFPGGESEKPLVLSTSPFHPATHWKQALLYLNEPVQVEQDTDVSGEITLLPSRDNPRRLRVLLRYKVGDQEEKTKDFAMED
UniProt P22894, sequence (whole entry, looked up): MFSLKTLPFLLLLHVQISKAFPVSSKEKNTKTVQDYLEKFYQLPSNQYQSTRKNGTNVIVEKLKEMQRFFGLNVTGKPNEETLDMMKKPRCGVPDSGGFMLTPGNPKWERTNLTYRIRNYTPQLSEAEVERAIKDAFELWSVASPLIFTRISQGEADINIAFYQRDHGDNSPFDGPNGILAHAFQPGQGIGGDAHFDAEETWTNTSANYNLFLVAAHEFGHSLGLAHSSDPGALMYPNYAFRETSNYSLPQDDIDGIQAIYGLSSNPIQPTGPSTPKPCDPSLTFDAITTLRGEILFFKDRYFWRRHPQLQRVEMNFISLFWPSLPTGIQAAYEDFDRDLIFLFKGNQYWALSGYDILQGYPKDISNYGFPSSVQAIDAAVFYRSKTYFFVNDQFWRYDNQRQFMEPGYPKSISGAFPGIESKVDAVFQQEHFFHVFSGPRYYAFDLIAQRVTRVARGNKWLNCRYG
UniProt P00519, sequence (whole entry, looked up): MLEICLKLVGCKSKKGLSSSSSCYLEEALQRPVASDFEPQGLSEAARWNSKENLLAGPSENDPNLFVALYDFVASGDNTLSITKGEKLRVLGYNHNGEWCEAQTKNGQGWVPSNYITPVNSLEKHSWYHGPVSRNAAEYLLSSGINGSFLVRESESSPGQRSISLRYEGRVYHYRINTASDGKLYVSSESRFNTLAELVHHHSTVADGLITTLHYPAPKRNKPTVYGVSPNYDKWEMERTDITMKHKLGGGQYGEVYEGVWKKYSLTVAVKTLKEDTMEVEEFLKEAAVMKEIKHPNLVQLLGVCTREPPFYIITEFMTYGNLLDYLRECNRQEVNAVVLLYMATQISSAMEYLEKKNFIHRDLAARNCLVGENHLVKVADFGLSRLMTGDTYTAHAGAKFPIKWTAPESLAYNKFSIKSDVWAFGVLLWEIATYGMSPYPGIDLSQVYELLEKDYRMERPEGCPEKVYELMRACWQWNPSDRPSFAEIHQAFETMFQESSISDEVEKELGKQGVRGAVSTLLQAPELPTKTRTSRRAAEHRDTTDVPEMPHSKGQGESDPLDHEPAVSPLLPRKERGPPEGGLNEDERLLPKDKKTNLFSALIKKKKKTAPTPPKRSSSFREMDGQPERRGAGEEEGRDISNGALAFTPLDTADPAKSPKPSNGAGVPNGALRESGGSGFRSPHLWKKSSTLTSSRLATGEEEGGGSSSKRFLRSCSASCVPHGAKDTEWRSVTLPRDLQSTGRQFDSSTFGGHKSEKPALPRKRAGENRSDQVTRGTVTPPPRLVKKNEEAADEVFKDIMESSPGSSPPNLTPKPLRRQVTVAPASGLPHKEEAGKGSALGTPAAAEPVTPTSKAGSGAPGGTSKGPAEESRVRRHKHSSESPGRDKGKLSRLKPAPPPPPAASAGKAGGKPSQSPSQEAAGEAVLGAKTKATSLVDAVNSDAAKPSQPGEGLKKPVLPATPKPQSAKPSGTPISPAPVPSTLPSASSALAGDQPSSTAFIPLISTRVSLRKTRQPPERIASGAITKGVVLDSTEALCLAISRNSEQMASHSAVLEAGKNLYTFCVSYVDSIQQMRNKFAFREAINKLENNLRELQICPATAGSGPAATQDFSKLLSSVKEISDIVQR
UniProt P18089, sequence (whole entry, looked up): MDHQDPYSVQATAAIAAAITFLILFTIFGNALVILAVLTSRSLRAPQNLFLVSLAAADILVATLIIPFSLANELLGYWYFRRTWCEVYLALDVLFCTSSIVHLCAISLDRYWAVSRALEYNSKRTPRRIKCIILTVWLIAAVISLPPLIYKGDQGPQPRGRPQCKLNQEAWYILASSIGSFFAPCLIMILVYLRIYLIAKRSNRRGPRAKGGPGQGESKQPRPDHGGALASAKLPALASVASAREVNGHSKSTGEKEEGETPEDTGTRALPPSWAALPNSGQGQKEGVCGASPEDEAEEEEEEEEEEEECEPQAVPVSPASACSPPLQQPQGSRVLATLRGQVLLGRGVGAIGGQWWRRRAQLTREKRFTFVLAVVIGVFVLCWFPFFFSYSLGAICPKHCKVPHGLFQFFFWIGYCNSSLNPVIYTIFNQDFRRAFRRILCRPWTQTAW

With `CC[C@H](C)[C@H](NC(=O)[C@H](Cc1ccc(O)cc1)NC(=O)[C@@H](NC(=O)[C@H](CCCNC(=N)N)NC(=O)[C@@H](N)CC(=O)O)C(C)C)C(=O)N[C@@H](Cc1c[nH]cn1)C(=O)N1CCC[C@H]1C(=O)N[C@@H](Cc1ccccc1)C(=O)O` the inhibition was 38% (ACE (Homo sapiens, UniProt P12821); angiotensin I hydrolysis; human serum; 5 µM, with: angiotensin I 2.5 µM).
With `CC(=O)NC(Cc1ccc(Br)c(Cl)c1)C(=O)N[C@@H](C)C(=O)N1CCC[C@H]1C(=O)N1CCC[C@H]1C(=O)N[C@@H](CCC(=O)O)C(=O)N[C@@H](Cc1c[nH]cn1)C(=O)N[C@@H](CO)C(=O)N[C@H](C(=O)N[C@@H](C)C(N)=O)[C@@H](C)OP(=O)(O)O` (stereo partly drawn) the inhibition was 0.39% (ABL1 (Homo sapiens, UniProt P00519); enzyme activity, inhibitor; 10 µM).
`COc1ccc(Nc2c3c(nc4ccccc24)CCCC3)nc1` gave an inhibition of 65.7% (BCHE; enzyme activity, inhibitor; 100 µM).
`CC(C)[C@H](NC(=O)[C@H](CCCNC(=N)N)NC(=O)[C@@H](N)Cc1ccccc1)C(=O)N[C@@H](Cc1c[nH]c2ccccc12)C(=O)O` gave an inhibition of 90.21 ± 0.31% (ACE (Oryctolagus cuniculus, UniProt P12822); inhibitor; rabbit; concentration not given, before incubation with ACE).
With `C[C@@](O)(C(F)F)[C@H](NC(=O)c1ccc(C#CC#CC2CC2)cc1)C(=O)NO` the inhibition was no more than 30% (MMP8 (Homo sapiens, UniProt P22894); enzyme activity, inhibitor; 30 µM).
With `C[C@]12CCC[C@H]1[C@@H]1CCc3c(cc(Br)c(O)c3Br)[C@H]1CC2` the inhibition was 26.7% (AKR1C3 (Homo sapiens, UniProt P42330); enzyme activity, inhibitor, absorbance; 100 µM, pH 9).
With `O=C(CCCc1ccccc1)N[C@H]1CCOC1=O` the inhibition was 56% (AbaR (Acinetobacter baumannii); reporter gene, antagonist; 100 µM, with: 2 700 nM).
`O=C(c1ccc(Nc2c3c(nc4ccccc24)CCCC3)cc1)C1CC1` has an inhibition of -115% (BCHE; enzyme activity, inhibitor; 50 µM).
For `NCC(CCC(N)C(=O)O)CC1OC(n2cnc3c(N)ncnc32)C(O)C1O` (stereo not drawn), the inhibition was greater than 50% (PRMT6 (Homo sapiens, UniProt Q96LA8); enzyme activity, inhibitor; 20 µM).
`C=CCn1nnc2c(NCc3ccc(C)s3)nc(N[C@H](CC)CO)nc21` gave an inhibition of 0 to 15% (CDK2 (Homo sapiens, UniProt P24941); enzyme activity; 2 µM).
With `CC1N=C(c2ccccc2F)c2cc(Nc3ccccc3C(F)(F)F)ccc2NC1=O` (stereo not drawn) the inhibition was 32% (ADRA2B (Homo sapiens, UniProt P18089); ligand displacement, radioligand; 10 µM).
With `Cc1cccc(Nc2c3c(nc4ccccc24)CCCC3)n1` the inhibition was -168% (BCHE; enzyme activity, inhibitor; 100 µM).

For quick reference, copied from above:
With `CC1N=C(c2ccccc2F)c2cc(Nc3ccccc3C(F)(F)F)ccc2NC1=O` (stereo not drawn) the inhibition was 32% (ADRA2B (Homo sapiens, UniProt P18089); ligand displacement, radioligand; 10 µM).
